Measured values gathered from unrelated publications.
Parts stem from different laboratories: compare values within a part only.

Set 1
Target: Myc proto-oncogene protein, bHLH-zipper, MAX partner unstated (MYC, Homo sapiens, UniProt P01106, residues 368-449)
Sequence of UniProt P01106 (368-449, looked up): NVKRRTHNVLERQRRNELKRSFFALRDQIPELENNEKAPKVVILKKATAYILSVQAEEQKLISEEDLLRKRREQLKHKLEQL
Method: protein-binding microarray
Form: double-stranded DNA, one strand shown
Sample: in vitro
Tested at: not given
Notes: k-mer, scored over probes, only values ≥0.25
Reading: higher = stronger binding
| Sequence | E-score |
| --- | --- |
| CATGCCGA | 0.378 |
| CACGCGCC | 0.455 |
| CATATGCG | 0.377 |
| ACGAGGTG | 0.356 |

Set 2
Target: Histone acetyltransferase KAT6A, winged helix 2, GST fusion (KAT6A, Homo sapiens, UniProt Q92794, residues 85-181)
Method: protein binding microarray
Form: double-stranded DNA, one strand shown
Sample: in vitro
Tested at: not given
Notes: 8-mer, flanks averaged, mean of 2 arrays, mostly near background
Baseline: not given
Reading: higher = stronger binding
Construct (chain): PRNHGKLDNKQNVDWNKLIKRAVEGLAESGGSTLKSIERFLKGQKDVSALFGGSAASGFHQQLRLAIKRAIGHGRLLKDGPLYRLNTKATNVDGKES
| Sequence | E-score |
| --- | --- |
| ATCACCTA | -0.209 |
| ACGAAGCG | -0.119 |
| AGTCGTGA | -0.0978 |
| CCCTGGCC | 0.0444 |
| CACCAGAA | -0.0754 |
| CTTGTGCC | -0.0103 |

Set 3
Target: RNA binding protein fox-1 homolog 2, RRM domain, GST-SBP tag (RBFOX2, Homo sapiens, UniProt O43251-10, residues 100-194)
Method: RNA Bind-n-Seq
Form: RNA
Sample: in vitro
Tested at: 365 nM
Notes: natural RNA segment, single round, ends assumed
Baseline: no-protein control
Reading: higher = stronger binding
All sequences stand within: GGGAGUUCUACAGUCCGACGAUC … UGGAAUUCUCGGGUGCCAA
Target sequence (chain): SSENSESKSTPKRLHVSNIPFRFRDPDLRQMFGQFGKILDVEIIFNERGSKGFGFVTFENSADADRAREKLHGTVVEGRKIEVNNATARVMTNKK
| Sequence | RBNS enrichment (R) |
| --- | --- |
| AGCGAUGCUCUUUCCUUCUCUGUUUAGGAAGAAGUGGUACUAGUGUGGUGUGUUUGCCUGGAAGUCCCUCGCCCACAGUGUGUGUUCACACCGACUCCACCUCAGAGCAU | 0.26 |
| CUCAAGACUUCAAGGCCACUCUCCCCAUAAACAUCAGACUACAGAUUUAGGUGGAAGAGCAGCCAUGUUUGAAGGGCACAUGUGAUGAGUGGGGGGCAGCAAGAUGCCAU | 1.04 |
| CCCCUCUACUGCUAUGUGGCUUCAACCAGCCUCACAGCCACACGGGGGAAGCAGAGAGUCAAGAAUGCAAAGAGGCCGCUUCCCUAAGAGGCUUGGAGGAGCUGGGCUCU | 1.64 |
| CAAGAAAUCCACAUUUGUGCUGCAGAUACUGGAAACCAAACUGCAGCUGCAGCCAUUGGAAGAAACCUGUUACCUGAAUGCGAUUUCCUCCAUUUUCUCAACAGCUGGAG | 0.314 |
| AACCACAGAUGGGAAGACAGAGCUUACUCCAGCAUAUUUCUAAGCUGCAUCUCAGUGCCUGGGAGAGCCCUCUCGAAACAUCACUAACCUGUCUGUAUUGCCGAAUCUGG | 0.776 |

Mixed results
| Molecule | target | test | test system | setting | scale | quantity | result |
| --- | --- | --- | --- | --- | --- | --- | --- |
| PhoQ, residues 284 288 289 292 302 303 SSTLSG | PhoP, residues 12 14 15 18 19 AQALL (Escherichia coli, UniProt P23836) | Sort-seq, refers to: YFP reporter | E. coli | PhoQ-PhoP variant library, added: 10 µM Mg2+ | baseline: high Mg2+ state, higher = stronger signaling | fold induction | 8 |

Excerpt of the above (set 1):
| Sequence | E-score |
| --- | --- |
| ACGAGGTG | 0.356 |
| CATATGCG | 0.377 |
